Results gathered from unrelated publications.
Each line is one published result; not all experiments were run side by side. ± gives the spread as reported.

`CC(c1cncnc1)n1c(=S)[nH]c2ccc(Cl)cc2c1=O` (centres unmarked) has a clearance of 22.3 mL/min/kg (mouse, plasma; intravenous).
For `COc1ccnc(C(=O)N[C@H]2COC(=O)[C@H](Cc3ccccc3)[C@@H](OC(=O)C(C)C)[C@H](C)OC2=O)c1OCOC(=O)C(C)C`, the NOAEL was 177 mg/kg/day (maternal toxicity, body weight loss; New Zealand white rabbit, female).
For `COc1ccc2nc3cc(Cl)ccc3c(Nc3cc(CN4CCCC4)c(O)c(CN4CCCC4)c3)c2n1`, the platelet count was 98.3 10⁹/L (mouse, blood; intraperitoneal, 14 mg/kg).
For `O=C(Nc1ccccc1)C1CCN(C(=O)Oc2cccnc2)CC1`, “subjects with ear discomfort” read 0% (adverse event reporting; healthy women; oral, 60 mg, 7 days).
Under “gastrointestinal disorders incidence”, `COc1ccc([C@@H](O)c2cc(-c3ncnc4cc(N5CCOCC5)ccc34)c(F)cc2Cl)nn1` is recorded as 10% (patients, advanced solid tumours; oral, 200 mg twice daily, treatment-emergent, added: avelumab).
The Leukopenia incidence of `COc1cc2c(Oc3ccc4[nH]c(C)cc4c3F)ccnc2cc1OCC1(N)CC1` is reported as 36.4% (paediatric recurrent refractory sarcoma; 12 mg).
For `CC(C)C[C@H](NC(=O)[C@H](CCCCN)NC(=O)OCC1c2ccccc2-c2ccccc21)C(=O)N[C@H](C(=O)N[C@@H](Cc1ccccc1)C(=O)N[C@@H](Cc1ccccc1)C(=O)N[C@@H](CCCCN)C(=O)NCC(=O)N[C@@H](Cc1ccccc1)C(=O)N[C@@H](C)C(=O)N[C@@H](Cc1c[nH]c2ccccc12)C(=O)N[C@@H](CC(N)=O)C(=O)N[C@H](C(=O)N[C@H]1CSSC[C@@H](C(=O)N[C@@H](Cc2c[nH]cn2)C(=O)N[C@@H](CCCNC(=N)N)C(=O)N[C@@H](CCCNC(=N)N)C(=O)N[C@@H](C)C(=O)N[C@@H](CC(N)=O)C(N)=O)NC(=O)[C@H](C(C)C)NC(=O)[C@H](CCCNC(=N)N)NC(=O)[C@H](C(C)C)NC(=O)CNC(=O)[C@H](CC(N)=O)NC(=O)[C@H](CCCNC(=N)N)NC(=O)[C@H](Cc2ccc(O)cc2)NC(=O)[C@H](C(C)C)NC1=O)C(C)C)C(C)C`, the monocytes was 3.34 ± 0.33% (ICR mice, blood; intraperitoneal, 10 mg/kg, day 5).
`CO[C@H]1C[C@@H]2CC[C@@H](C)[C@@](O)(O2)C(=O)C(=O)N2CCCC[C@H]2C(=O)O[C@H]([C@H](C)C[C@@H]2CC[C@@H](OC(=O)NCCOCCOCCOCCOCCOCCOCCOCCOCCC(=O)N3CCc4cc(Cn5nc(-c6ccc7oc(N)nc7c6)c6c(N)ncnc65)ccc4C3)[C@H](OC)C2)C[C@@H](O)[C@H](C)/C=C(\C)[C@@H](O)[C@@H](OC)C(=O)[C@H](C)C[C@H](C)/C=C/C=C/C=C/1C` — result for “AE leading to discontinuation”: 0% (patients with advanced solid tumours; intravenous, 10 mg weekly, any grade).
`CN1CC[C@@H](c2c(O)cc(O)c3c(=O)cc(-c4ccc(C(F)(F)F)cc4Cl)oc23)[C@@H]1CO` — result for “patients with adverse event”: 12.5% (refers to: Vomiting; relapsed or refractory haematological malignancies; oral, dose not given, all arms).
For `CCN1[C@@H](C(=O)NC23CCC(C(=O)O)(CC2)CC3)[C@H](c2cccc(Cl)c2F)[C@]2(C(=O)Nc3cc(Cl)ccc32)C12CCCCC2`, “abdominal pain incidence” read 0% (patients with advanced solid tumours; oral, 200 mg).
`C[C@]1(CO)Cc2ncn(-c3ccc(C#N)c(Cl)c3)c2C(=O)O1`: “subjects with drug-related TEAE” 0% (refers to: involuntary muscle contractions; human; 40 mg single dose).
The recovery of `CC(C)CC(=O)OC[C@H]1O[C@@](C#N)(c2ccc3c(N)ncnn23)[C@H](O)[C@@H]1O` is reported as 98.3% (plasma protein binding; monkey plasma; 90 µM, time not given).
The oral bioavailability of `CCC[C@@](N)(CO)CCc1ccc(OCCCCCC(C)C)cc1` is reported as 16% (male hound dog; oral, 2.5 mg/kg, capsule, IV dose 1.0 mg/kg).
`CCCCCCCCCCCCCCCC(=O)N[C@@H](CCC(=O)NCCCC[C@H](NC(=O)[C@H](CC(=O)O)NC(=O)[C@H](CO)NC(=O)[C@@H](NC(=O)[C@H](Cc1ccccc1)NC(=O)[C@@H](NC(=O)CNC(=O)[C@H](CCC(N)=O)NC(=O)[C@H](CO)NC(=O)[C@@H](N)Cc1c[nH]cn1)[C@@H](C)O)[C@@H](C)O)C(=O)N[C@@H](CO)C(=O)N[C@@H](CCC(=O)O)C(=O)N[C@@H](Cc1ccc(O)cc1)C(=O)N[C@@H](CC(C)C)C(=O)N[C@@H](CC(=O)O)C(=O)N[C@@H](CO)C(=O)N[C@@H](CCC(=O)O)C(=O)N[C@@H](CCCNC(=N)N)C(=O)N[C@@H](C)C(=O)N[C@@H](CCCNC(=N)N)C(=O)N[C@@H](CC(=O)O)C(=O)N[C@@H](Cc1ccccc1)C(=O)N[C@H](C(=O)N[C@@H](C)C(=O)N[C@@H](Cc1c[nH]c2ccccc12)C(=O)N[C@@H](CC(C)C)C(=O)N[C@@H](CCC(=O)O)C(=O)N[C@@H](C)C(=O)NCC(=O)NCC(=O)O)C(C)C)C(=O)O` — result for “treatment-related adverse events”: 35.1% (refers to: Vomiting; humans all renal groups; subcutaneous, 100 µg single dose).

For quick reference, copied from above:
The oral bioavailability of `CCC[C@@](N)(CO)CCc1ccc(OCCCCCC(C)C)cc1` is reported as 16% (male hound dog; oral, 2.5 mg/kg, capsule, IV dose 1.0 mg/kg).
For `O=C(Nc1ccccc1)C1CCN(C(=O)Oc2cccnc2)CC1`, “subjects with ear discomfort” read 0% (adverse event reporting; healthy women; oral, 60 mg, 7 days).
